Assay results pooled from the literature.
Each numbered part is a random draw from the data of one study; scales do not carry over between parts.

Series 1 — method: protein binding microarray; molecule type: double-stranded DNA, one strand shown; matrix: in vitro; concentration: not given; reference: not given; direction: higher = stronger binding; endpoint: E-score
Target: Histone acetyltransferase KAT6A, both winged helices, GST fusion (KAT6A, Homo sapiens, UniProt Q92794, residues 1-181)
Setting: 8-mer, flanks averaged, mean of 2 arrays, mostly near background
Construct (chain): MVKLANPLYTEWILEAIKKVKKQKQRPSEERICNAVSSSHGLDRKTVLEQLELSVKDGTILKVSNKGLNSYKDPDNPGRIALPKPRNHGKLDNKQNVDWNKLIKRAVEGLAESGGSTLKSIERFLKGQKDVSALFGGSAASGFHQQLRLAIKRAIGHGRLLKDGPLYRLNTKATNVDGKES
AGCGTAAT: 0.0256
CGGCGACC: 0.308
CGGCAACG: 0.268
CCTCCGTC: 0.0238

Series 2 — method: universal PBM; molecule type: double-stranded DNA, one strand shown; matrix: in vitro; concentration: 600 nM; direction: higher = stronger binding; endpoint: E-score
Target: Sal-like protein 4, full length isoform A (SALL4, Homo sapiens, UniProt Q9UJQ4, residues 1-1053)
Sequence of UniProt Q9UJQ4 (whole entry, looked up): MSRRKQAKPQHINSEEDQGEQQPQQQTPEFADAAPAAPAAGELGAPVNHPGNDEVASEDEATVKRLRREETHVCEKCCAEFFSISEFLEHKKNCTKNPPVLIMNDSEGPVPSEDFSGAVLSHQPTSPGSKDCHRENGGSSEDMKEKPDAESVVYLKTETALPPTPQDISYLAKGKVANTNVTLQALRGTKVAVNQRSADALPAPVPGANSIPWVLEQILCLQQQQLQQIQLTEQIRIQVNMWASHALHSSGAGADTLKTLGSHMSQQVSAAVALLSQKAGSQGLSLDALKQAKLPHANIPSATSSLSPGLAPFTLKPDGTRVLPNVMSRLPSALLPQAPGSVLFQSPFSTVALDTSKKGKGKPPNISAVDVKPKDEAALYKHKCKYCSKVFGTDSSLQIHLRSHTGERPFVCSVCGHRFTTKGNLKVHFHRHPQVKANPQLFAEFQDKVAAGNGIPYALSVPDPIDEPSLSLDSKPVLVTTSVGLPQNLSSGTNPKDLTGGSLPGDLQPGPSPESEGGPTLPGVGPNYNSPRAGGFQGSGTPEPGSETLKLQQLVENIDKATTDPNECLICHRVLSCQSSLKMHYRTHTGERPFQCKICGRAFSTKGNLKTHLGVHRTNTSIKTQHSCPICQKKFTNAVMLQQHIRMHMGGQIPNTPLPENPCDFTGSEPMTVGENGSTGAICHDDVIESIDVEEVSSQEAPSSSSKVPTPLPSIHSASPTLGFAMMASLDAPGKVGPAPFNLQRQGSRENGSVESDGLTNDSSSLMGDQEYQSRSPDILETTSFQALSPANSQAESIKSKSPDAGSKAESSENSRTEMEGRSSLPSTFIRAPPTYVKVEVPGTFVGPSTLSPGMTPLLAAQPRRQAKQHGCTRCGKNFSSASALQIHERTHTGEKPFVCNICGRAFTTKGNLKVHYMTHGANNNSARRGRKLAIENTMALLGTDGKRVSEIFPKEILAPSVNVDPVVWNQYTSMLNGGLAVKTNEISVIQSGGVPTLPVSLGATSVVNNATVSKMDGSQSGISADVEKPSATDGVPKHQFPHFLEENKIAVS
Setting: 8-mer, flanks averaged, mean of replicates
ACGGCAGA: -0.135
CACGCCCC: -0.357
AATGCAAT: 0.249
CCGATATA: 0.254
ATTTTCAA: 0.311
ACGCTAGT: -0.102

Series 3 — method: protein-binding microarray; molecule type: double-stranded DNA, one strand shown; matrix: in vitro; concentration: 250 nM; setting: 60-bp whole probe; added: salmon DNA 0.4 mg/ml; reference: random background probes; direction: higher = stronger binding; endpoint: log fluorescence; shared flanks, not repeated: GCCTAGCAC … GTCTTGATTCGCTTGACGCTGCTG
Target: Interferon regulatory factor 5, full length, phosphomimetic (IRF5, Homo sapiens, UniProt Q13568-2, residues 1-514, K96S/S451D/S453D/S456D/S462D)
TACGGACTGCTACTGCTGACGTGCTAG: -0.587 z-score
TTAAGTCTCCTTTTCCTTTAGTGCTAG: 0.849 z-score
GACGGTATCGGGTATCCGGACGTGCTA: 3.02 z-score
GACGGTATCCTTATACTGACGTGCTAG: -0.12 z-score
TTAGAACTGAGTCTGGATTAGTGCTAG: -0.344 z-score
TTAGATTTGGGGTTTCGATTAGTGCTA: 5.73 z-score

Single results of other studies
PhoQ, residues 284 288 289 292 302 303 ALSMDL  fold induction (PhoP, residues 12 14 15 18 19 SEGLL (Escherichia coli, UniProt P23836); Sort-seq, item: YFP reporter; E. coli; PhoQ-PhoP variant library, added: 10 µM Mg2+; reference: high Mg2+ state, higher = stronger signaling): 7.13

Excerpt of the above (series 1):
AGCGTAAT: 0.0256
CGGCGACC: 0.308
